Published values gathered from unrelated publications.
Parts stem from different laboratories: compare values within a part only. Several values in a cell are separate wells, animals, samples, runs or records.
UniProt P00519, sequence (whole entry, unmodified, looked up): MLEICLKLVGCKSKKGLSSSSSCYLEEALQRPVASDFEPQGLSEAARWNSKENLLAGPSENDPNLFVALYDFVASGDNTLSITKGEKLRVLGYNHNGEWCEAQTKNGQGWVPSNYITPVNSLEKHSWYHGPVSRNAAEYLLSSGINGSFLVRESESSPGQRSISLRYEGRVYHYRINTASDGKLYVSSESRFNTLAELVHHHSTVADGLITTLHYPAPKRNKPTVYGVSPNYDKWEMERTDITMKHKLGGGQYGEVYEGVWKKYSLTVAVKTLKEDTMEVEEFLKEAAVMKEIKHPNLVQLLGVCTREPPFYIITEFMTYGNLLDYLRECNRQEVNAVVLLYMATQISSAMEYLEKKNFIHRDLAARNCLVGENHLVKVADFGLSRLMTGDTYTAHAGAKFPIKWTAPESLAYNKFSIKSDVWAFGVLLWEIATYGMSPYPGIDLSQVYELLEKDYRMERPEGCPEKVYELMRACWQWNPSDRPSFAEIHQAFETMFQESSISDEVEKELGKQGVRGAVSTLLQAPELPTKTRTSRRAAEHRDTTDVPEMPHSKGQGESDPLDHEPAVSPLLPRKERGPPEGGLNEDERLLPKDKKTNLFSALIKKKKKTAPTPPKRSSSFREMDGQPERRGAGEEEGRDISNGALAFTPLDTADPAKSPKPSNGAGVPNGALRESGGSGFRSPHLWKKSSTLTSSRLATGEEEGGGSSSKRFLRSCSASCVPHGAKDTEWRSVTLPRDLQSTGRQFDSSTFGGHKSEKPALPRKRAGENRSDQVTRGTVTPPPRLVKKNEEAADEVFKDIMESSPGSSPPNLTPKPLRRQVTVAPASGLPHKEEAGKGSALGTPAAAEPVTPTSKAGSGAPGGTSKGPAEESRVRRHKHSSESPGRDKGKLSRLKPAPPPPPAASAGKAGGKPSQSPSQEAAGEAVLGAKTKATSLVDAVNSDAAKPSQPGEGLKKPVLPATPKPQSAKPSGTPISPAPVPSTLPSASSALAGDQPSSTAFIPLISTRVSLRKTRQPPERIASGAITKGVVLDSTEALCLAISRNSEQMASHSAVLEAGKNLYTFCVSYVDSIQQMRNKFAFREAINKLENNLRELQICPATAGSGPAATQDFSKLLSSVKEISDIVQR
UniProt Q9Y5N1, sequence (whole entry, looked up): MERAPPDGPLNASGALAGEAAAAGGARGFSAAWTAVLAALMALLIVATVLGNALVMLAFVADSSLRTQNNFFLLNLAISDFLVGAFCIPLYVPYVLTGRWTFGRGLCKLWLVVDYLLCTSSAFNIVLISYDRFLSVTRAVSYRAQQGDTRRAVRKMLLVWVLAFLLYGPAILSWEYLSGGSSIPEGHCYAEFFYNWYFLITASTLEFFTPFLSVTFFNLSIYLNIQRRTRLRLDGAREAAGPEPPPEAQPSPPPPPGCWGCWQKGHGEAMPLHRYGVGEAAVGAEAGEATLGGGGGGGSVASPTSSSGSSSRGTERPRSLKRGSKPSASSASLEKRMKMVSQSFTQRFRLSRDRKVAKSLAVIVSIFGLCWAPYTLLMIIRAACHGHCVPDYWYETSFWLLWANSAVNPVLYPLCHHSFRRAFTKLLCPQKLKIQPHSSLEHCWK
UniProt Q13163, sequence (whole entry, looked up): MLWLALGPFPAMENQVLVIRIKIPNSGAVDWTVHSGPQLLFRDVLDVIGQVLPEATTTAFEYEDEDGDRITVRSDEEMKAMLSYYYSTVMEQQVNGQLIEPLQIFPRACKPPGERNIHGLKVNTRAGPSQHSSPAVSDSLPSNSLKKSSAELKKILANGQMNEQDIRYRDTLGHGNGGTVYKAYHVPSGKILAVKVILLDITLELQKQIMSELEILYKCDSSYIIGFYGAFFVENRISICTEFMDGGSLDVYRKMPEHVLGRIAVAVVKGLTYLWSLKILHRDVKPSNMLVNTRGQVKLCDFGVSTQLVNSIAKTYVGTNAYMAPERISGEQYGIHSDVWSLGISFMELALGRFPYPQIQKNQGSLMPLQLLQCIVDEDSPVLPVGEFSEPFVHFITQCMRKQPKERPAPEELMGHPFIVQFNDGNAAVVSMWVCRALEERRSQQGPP

Sample 1 — concentration: 1 µM
SMILES: C[C@H]1CC[C@H](n2c3cnccc3c3cnc(Nc4ccc5c(n4)CCN(C(=O)CO)C5)nc32)CC1
| target | test | remaining binding |
| --- | --- | --- |
| YES1 (Homo sapiens, UniProt P07947) | cell-free assay, competition with immobilised ligand | 64% |
| Ribosomal protein S6 kinase alpha-3, N-terminal kinase domain (RPS6KA3, Homo sapiens, UniProt P51812) | binding, competition with immobilised ligand | 8.8% |
| TNIK (Homo sapiens, UniProt Q9UKE5) | binding, competition with immobilised ligand | 37% |
| BMPR1B (Homo sapiens, UniProt O00238) | cell-free assay, competition with immobilised ligand | 85% |
| EPHA5 (Homo sapiens, UniProt P54756) | cell-free assay, competition with immobilised ligand | 100% |
| MAP2K2 (Homo sapiens, UniProt P36507) | cell-free assay, competition with immobilised ligand | 61% |
| ABL1 (Homo sapiens, UniProt P00519, T315I) | – | 81% |
| LTK (Homo sapiens, UniProt P29376) | binding | 100% |
| MAP2K5 (Homo sapiens, UniProt Q13163) | binding, competition with immobilised ligand | 0.65% |

Sample 2 — effect on: enzyme activity; action: inhibitor; concentration: 0.5 µM; reference: control
Target: RAC-alpha serine/threonine-protein kinase (AKT1, Homo sapiens, UniProt P31749)
UniProt P31749, sequence (whole entry, looked up): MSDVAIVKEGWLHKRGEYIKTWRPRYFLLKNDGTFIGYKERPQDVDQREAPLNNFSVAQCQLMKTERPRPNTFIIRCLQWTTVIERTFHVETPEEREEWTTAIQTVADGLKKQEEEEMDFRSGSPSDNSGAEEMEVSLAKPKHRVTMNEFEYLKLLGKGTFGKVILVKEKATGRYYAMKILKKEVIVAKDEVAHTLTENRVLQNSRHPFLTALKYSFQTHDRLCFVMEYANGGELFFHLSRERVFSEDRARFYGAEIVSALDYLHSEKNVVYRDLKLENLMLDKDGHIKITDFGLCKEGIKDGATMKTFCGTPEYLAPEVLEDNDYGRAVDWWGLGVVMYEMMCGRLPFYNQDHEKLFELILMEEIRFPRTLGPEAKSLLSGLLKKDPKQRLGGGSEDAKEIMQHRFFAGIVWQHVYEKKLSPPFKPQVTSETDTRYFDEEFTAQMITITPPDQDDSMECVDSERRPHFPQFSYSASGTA
| SMILES | remaining activity [%] |
| --- | --- |
| Cc1ccc(NC(=O)c2ccc(CN3CCN(C)CC3)cc2)cc1Nc1nc(-c2cccnc2)cs1 | 93.2 |
| Cc1cccc(-c2[nH]c(C(C)(C)C)nc2-c2ccc3c(c2)OCO3)n1 | 94.6 |
| O=C(CCCc1ccc(-c2ccccc2F)cc1)Nc1ccc(O)cc1 | 97.8 |
| COc1ccc(C(=O)Nc2sc3c(c2C(N)=O)CCCC3)cc1OC | 99.7 |
| Cn1c2ccccc2c2c3c(c4c5ccccc5n(CCC#N)c4c21)CNC3=O | 108 |
| COc1cc2nccc(Oc3ccc(NC(=S)NC(=O)c4ccccc4C)cc3)c2cc1OC | 95.7 |
| OCC(O)CCON=C1C(c2c(O)[nH]c3ccccc23)=Nc2ccccc21 (centres unmarked) | 95.6 |
| CN(C)c1ccc(C=C2C(=O)Nc3ccccc32)cc1 | 101 |
| COc1cc2ncnc(Nc3ccc(Oc4ccccc4)cc3)c2cc1OC | 107 |
| N#CC(C#N)=C(N)/C(C#N)=C/c1ccc(O)cc1 | 99.2 |
| O=C(Nc1cccc(Nc2cc(Nc3cccc(C(F)(F)F)c3)ncn2)c1)C1CC1 | 102 |
| NCCNc1ncc(C(N)=O)c(Nc2cccc(C(F)(F)F)c2)n1 | 96.4 |
| Cc1nc(-c2ccccc2)c(-c2ccncc2)o1 | 102 |
| Nc1ncnc2n[nH]c(Nc3ccc(F)cc3)c12 | 93.3 |
| CCOC(=O)c1c(C)[nH]c(/C=C2\C(=O)Nc3ccccc32)c1C | 96.1 |

Sample 3 — effect on: cell-free assay; concentration: 10 µM
SMILES: O=C(c1ccc(F)cc1)N1CC(COc2ccc(Br)cc2)(C(=O)O)C1
| target | inhibition |
| --- | --- |
| DRD1 (Homo sapiens, UniProt P21728) | -52.3% |
| HRH3 (Homo sapiens, UniProt Q9Y5N1) | -20% |
| SIGMAR1 (Homo sapiens, UniProt Q99720) | 20.3% |
| HTR6 (Homo sapiens, UniProt P50406) | -2.64% |
| CHRM2 (Homo sapiens, UniProt P08172) | 26.7% |
| HRH2 (Homo sapiens, UniProt P25021) | 15.7% |
| ADRB2 (Homo sapiens, UniProt P07550) | -15% |

Sample 4 — effect on: enzyme activity; action: inhibitor; concentration: 77 µM; reference: untreated
Target: DNA polymerase theta, ATPase domain (POLQ, Homo sapiens, UniProt O75417)
UniProt O75417, sequence (whole entry, unmodified, looked up): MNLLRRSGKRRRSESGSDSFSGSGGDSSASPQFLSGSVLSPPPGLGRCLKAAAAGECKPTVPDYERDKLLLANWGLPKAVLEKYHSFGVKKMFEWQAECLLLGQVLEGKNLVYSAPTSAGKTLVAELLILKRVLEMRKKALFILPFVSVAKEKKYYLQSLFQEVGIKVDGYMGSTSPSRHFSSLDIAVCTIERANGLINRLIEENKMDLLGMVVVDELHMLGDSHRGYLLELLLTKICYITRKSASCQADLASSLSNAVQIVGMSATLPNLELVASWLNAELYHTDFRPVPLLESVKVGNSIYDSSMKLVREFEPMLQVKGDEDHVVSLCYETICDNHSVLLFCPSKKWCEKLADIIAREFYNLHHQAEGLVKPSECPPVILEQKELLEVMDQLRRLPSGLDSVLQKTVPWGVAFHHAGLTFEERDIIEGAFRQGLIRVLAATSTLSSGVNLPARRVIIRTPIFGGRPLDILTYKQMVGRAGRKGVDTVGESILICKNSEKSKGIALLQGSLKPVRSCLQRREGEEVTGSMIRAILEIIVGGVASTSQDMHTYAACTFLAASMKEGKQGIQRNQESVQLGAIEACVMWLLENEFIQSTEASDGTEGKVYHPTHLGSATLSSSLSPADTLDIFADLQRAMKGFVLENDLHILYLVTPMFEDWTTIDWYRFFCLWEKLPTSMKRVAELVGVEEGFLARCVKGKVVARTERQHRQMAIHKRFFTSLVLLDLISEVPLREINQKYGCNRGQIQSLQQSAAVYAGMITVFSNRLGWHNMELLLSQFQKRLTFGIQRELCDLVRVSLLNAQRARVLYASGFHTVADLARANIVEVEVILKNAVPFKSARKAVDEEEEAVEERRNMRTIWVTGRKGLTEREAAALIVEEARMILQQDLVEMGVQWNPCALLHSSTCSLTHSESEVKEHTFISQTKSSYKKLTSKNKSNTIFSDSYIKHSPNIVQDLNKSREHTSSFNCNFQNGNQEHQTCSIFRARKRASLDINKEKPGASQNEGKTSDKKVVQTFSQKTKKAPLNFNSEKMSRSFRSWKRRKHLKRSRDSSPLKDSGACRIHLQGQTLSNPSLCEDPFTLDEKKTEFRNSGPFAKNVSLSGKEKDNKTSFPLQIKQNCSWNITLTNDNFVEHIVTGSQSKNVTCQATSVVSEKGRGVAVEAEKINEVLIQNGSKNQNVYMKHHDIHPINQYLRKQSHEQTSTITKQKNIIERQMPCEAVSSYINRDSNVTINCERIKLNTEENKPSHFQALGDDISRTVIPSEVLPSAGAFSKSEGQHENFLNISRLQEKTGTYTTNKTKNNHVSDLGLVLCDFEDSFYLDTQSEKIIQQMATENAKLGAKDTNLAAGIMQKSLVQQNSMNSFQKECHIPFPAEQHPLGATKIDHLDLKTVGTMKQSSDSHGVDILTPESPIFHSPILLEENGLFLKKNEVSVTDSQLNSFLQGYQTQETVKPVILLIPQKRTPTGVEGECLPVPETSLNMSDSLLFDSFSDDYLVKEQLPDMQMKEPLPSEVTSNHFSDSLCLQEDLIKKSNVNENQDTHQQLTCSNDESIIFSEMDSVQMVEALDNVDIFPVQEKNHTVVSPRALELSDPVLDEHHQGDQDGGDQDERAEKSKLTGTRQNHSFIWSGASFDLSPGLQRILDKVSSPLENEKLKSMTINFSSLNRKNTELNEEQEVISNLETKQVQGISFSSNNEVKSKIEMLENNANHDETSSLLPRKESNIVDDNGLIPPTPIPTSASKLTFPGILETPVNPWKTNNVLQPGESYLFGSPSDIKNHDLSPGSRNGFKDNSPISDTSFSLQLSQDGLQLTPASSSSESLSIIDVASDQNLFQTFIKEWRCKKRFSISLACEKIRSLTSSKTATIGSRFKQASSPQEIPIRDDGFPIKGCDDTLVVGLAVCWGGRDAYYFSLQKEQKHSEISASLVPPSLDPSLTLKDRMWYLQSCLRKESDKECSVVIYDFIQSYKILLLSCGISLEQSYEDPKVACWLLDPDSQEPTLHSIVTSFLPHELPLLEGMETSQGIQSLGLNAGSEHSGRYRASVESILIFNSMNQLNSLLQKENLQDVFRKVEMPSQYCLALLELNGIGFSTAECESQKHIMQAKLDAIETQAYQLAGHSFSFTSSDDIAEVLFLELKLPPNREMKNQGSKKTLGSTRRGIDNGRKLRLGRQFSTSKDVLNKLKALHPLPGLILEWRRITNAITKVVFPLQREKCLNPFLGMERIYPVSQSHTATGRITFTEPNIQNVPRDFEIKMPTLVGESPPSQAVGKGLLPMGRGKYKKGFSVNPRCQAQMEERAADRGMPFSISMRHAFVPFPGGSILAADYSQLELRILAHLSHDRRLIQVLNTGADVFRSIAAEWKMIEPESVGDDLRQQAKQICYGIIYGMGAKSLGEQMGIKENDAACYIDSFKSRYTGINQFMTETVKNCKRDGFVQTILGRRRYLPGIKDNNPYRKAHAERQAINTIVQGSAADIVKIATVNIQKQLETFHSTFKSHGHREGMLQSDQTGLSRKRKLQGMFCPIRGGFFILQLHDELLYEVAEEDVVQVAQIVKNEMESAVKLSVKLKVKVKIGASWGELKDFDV
| SMILES | remaining activity |
| --- | --- |
| CNC(=O)c1c(I)c(C(=O)NCC(=O)Nc2c(I)c(C(=O)O)c(I)c(C(=O)NCCO)c2I)c(I)c(N(C)C(C)=O)c1I | 103% |
| CN(C)CCOC(c1ccc(Cl)cc1)c1ccccn1 (centres unmarked) | 96.7% |
| COc1ccc(C(=O)c2ccccc2)c(O)c1 | 103% |
| C1COC(NC(C2CC2)C2CC2)=N1 | 97.2% |
| Cc1nc(Nc2n[nH]c3c2CN(C(=O)N[C@H](CN(C)C)c2ccccc2)C3(C)C)c2sccc2n1 | 103% |
| CC(=O)N1CCN(c2ccc(OC[C@@H]3CO[C@@](Cn4ccnc4)(c4ccc(Cl)cc4Cl)O3)cc2)CC1 (racemic) | 134% and 157% |
| CNCc1ccc(C)c(NC(=O)c2ccc(Nc3nc(-c4ccccc4)c4ccccc4n3)cc2)c1 | 97.1% |
| C[C@H]1[C@H](OC(=O)CCC(=O)O)O[C@@H]2O[C@@]3(C)CC[C@H]4[C@H](C)CC[C@@H]1[C@@]24OO3 | 101% |
| COc1ccc([C@@H]2CC(=O)c3c(O)cc(O[C@@H]4O[C@H](CO[C@@H]5O[C@@H](C)[C@H](O)[C@@H](O)[C@H]5O)[C@@H](O)[C@H](O)[C@H]4O)cc3O2)cc1OC | 98.2% |
| CCn1ccnc1CC1COc2ccccc2O1 (centres unmarked) | 98.9% |

Some of these lines once more (sample 1):
| target | test | remaining binding |
| --- | --- | --- |
| YES1 (Homo sapiens, UniProt P07947) | cell-free assay, competition with immobilised ligand | 64% |
| Ribosomal protein S6 kinase alpha-3, N-terminal kinase domain (RPS6KA3, Homo sapiens, UniProt P51812) | binding, competition with immobilised ligand | 8.8% |
| TNIK (Homo sapiens, UniProt Q9UKE5) | binding, competition with immobilised ligand | 37% |
| BMPR1B (Homo sapiens, UniProt O00238) | cell-free assay, competition with immobilised ligand | 85% |
| EPHA5 (Homo sapiens, UniProt P54756) | cell-free assay, competition with immobilised ligand | 100% |
| MAP2K2 (Homo sapiens, UniProt P36507) | cell-free assay, competition with immobilised ligand | 61% |
